Published values gathered from unrelated publications.
A part holds a random share of what one study measured. Positions count from the first letter of the parent shown.

Series 1 — technique: RNA Bind-n-Seq; molecule type: RNA; sample: in vitro; concentration: 20 nM; setting: 6-mer, flanks averaged, single round; with: 150 mM KCl; relative to: input library; reading: higher = stronger binding
Target: TAR DNA-binding protein 43, full length, His tag (TARDBP, Homo sapiens, UniProt Q13148, residues 1-414)
Sequence	6-mer enrichment (R)
UUCUUU	0.644
CCCCUA	0.666
ACGUGC	0.841
UGCCCA	0.675
UUAUAG	0.643
GUGUAA	0.964
ACCCAU	0.644
UAUGUC	0.654

Series 2 — technique: RNA Bind-n-Seq; molecule type: RNA; sample: in vitro; concentration: 90 pmol; setting: 4-mer, random 30-nt RNA, single round; relative to: input library; reading: higher = stronger binding
Target: ATP-dependent RNA helicase DDX3X, helicase core (DDX3X, Homo sapiens, UniProt O00571, residues 132-607)
Sequence of UniProt O00571 (132-607, looked up): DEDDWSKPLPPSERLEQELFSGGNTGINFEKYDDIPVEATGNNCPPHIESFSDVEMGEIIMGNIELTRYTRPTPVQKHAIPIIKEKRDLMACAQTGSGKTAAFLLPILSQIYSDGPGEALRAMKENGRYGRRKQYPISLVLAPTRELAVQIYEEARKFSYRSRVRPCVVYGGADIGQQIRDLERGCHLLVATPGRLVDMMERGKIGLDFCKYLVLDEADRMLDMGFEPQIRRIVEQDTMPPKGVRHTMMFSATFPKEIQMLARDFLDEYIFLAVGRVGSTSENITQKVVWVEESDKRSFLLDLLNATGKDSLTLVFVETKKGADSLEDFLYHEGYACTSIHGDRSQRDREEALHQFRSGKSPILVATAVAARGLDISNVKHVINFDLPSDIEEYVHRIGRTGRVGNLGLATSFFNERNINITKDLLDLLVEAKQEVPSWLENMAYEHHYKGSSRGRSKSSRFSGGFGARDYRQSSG
With: 3 µM iPr-DMDA-PatA, 2 mM ADP, 2 mM phosphate
Sequence	4-mer enrichment [fold]
CUGC	0.74
GCGU	0.834
ACAA	1.31
AUAC	1.16
CAUC	0.956
GUAC	0.901
CUGA	0.955
CACG	0.957

Series 3 — target: CCND3, cyclin fold, Cln2 fusion (human); technique: yeast growth competition, sequencing; sample: yeast; setting: weak parent motif; relative to: not given; reading: higher = stronger binding
Parent: viral docking peptide; KGVKRKLFAEDSS; partner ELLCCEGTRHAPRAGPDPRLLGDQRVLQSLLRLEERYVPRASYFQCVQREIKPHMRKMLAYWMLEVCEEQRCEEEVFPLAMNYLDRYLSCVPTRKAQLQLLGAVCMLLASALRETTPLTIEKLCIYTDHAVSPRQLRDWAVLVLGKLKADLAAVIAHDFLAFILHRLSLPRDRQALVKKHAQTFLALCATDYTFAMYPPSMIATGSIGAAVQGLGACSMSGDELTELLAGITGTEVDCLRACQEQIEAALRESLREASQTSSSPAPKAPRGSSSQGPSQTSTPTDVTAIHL
Substitution	normalised enrichment score
A9Q	-0.0144
K6W	-0.464
K6T	0.256
R5T	0.132
L7D	0.0111
L7M	0.6
V3L	0.312
A9D	0.125
V3I	0.314
K6A	-0.0832
K6Q	0.293
D11N	-0.0511
V3P	0.317
F8G	0.641
S12P	0.36
G2I	0.375
S12F	-0.0352
E10I	0.166
K6M	0.215
F8Q	0.159
K4E	0.314
V3Y	0.144
F8R	0.317
D11L	-0.206
L7I	0.592

Series 4 — target: UBE2D2 UBC core domain (UniProt P62837); technique: yeast two-hybrid; sample: yeast; setting: mostly zero background; relative to: not given; reading: higher = stronger interaction
Sequence of UniProt P62837 (whole entry, looked up): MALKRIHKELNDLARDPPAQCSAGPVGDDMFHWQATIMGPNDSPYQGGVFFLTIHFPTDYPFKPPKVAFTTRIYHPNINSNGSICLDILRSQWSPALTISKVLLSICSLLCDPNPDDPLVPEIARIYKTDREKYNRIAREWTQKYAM
B1: TRIM28 RING domain (UniProt Q13263); chain GAEALELLEHCGVCRERLRPEREPRLLPCLHSACSACLGPAAPAAANSSGDGGAAGDGTVVDCPVCKQQCFSKDIVE
B2: TRIM74 RING domain (UniProt Q86UV6); chain SLLELEDWLQCPICLEVFKESLMLQCGHSYCKGCLVSLSYHLDTKVRCPMCWQVVDGSSSLP
Sequence	lacZ reporter activity
B1 (TRIM28 RING domain)	0
SNNDLASLFECPVCFDYVLPPILQCQSGHLVCSNCRPKLTCCPTCRGPLGSIRNLA (SIAH1 RING domain (UniProt Q8IUQ4))	2140
B2 (TRIM74 RING domain)	0

Series 5 — read-out: peptide-MHC binding; molecule type: peptide; concentration: concentration not given
Target: HLA class I histocompatibility antigen, A alpha chain, allele A*26:03 (Homo sapiens, UniProt P04439)
Sequence	binding
RQMKSGGRF	inactive
WHQARFEEL	inactive
DILASIIDY	inactive

Series 6 — technique: protein binding microarray; molecule type: double-stranded DNA, one strand shown; sample: in vitro; concentration: not given; relative to: not given; reading: higher = stronger binding
Target: Histone acetyltransferase KAT6A, winged helix 1, GST fusion (KAT6A, Homo sapiens, UniProt Q92794, residues 1-85)
Setting: 8-mer, flanks averaged, mean of 2 arrays, mostly near background
Target sequence (chain): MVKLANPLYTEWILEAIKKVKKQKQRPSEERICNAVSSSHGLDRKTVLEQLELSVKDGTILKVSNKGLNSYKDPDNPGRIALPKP
Sequence	E-score
AACCATTC	-0.0529
ACATTATG	0.0118
CAACTCTA	-0.122
AATATGAG	-0.182
ATGAGCTC	-0.0703
AGCCTAGA	-0.0013
AAGTGCGC	0.318
ATGATTAA	-0.218
